Published values from different studies.
Each line is one published result; not all experiments were run side by side.
Target: Albumin (ALB, Bos taurus, UniProt P02769)
Sequence of UniProt P02769 (whole entry, looked up): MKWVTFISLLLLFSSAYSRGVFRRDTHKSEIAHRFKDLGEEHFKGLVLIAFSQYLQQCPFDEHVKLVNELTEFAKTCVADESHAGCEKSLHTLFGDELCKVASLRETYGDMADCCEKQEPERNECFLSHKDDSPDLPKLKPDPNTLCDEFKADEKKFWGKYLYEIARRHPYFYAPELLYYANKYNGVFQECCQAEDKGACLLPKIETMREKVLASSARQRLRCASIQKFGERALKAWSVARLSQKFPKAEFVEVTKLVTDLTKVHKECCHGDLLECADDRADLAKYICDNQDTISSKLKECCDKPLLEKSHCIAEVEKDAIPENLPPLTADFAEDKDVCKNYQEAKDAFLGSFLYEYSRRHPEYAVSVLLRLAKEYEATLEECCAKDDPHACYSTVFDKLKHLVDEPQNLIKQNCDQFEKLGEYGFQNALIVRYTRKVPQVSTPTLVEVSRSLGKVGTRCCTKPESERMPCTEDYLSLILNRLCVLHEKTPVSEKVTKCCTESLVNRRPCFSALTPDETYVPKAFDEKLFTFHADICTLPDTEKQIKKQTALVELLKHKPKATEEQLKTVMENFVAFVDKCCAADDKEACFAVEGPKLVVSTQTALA

Cc1ccc(C(C)C)cc1.[Cl-].[Cl][Ru+].[Ru+].c1ccc(-c2cn(CCCCOc3ccccc3-c3nc4ccccc4s3)nn2)nc1  Stern-Volmer constant (tryptophan fluorescence quenching): 137000 M⁻¹
COC(=O)c1cnc(-c2cnccn2)cc1C(=O)OC.COC(=O)c1cnc(-c2cnccn2)cc1C(=O)OC.O.O.O.O=S(=O)([O-])C(F)(F)F.O=S(=O)([O-])C(F)(F)F.[Cu+2]  quenching rate constant (fluorescence quenching): 2.28e+13 M⁻¹ s⁻¹
CC1=[N+]2N=C(c3ccccc3)[O][Pd-2]2([Cl])[O+]=C2Oc3ccccc3C=C21 (stereo not drawn)  hyperchromism (UV-visible absorption titration; concentration not given, 278 nm): 36%
CCCCCCCCCCCCCCCC(=O)Nc1ccccc1SSc1ccccc1NC(=O)CCCCCCCCCCCCCCC  enthalpy change (binding, van't Hoff; concentration not given, 298-313 K): -97.2 kJ/mol
CC(=O)[O-].O.O.O.O.[Co+2].[O-]c1ccc(Br)cc1C=NCCN1CCOCC1  Gibbs free energy change (UV absorption titration): -24.8 kJ/mol
CCCCCCCCCCCC(=O)Nc1ccccc1SSc1ccccc1NC(=O)CCCCCCCCCCC  Gibbs free energy change (binding, fluorescence quenching; 298 K): -49.4 kJ/mol
O=C([O-])CN1CCN(CC(=O)[O-])CCN(C(CCC(=O)NC(Cc2c[nH]c3ccc(O)cc23)C(=O)NCCc2c[nH]c3ccc(O)cc23)C(=O)O)CCN(CC(=O)[O-])CC1.[Gd+3] (stereo not drawn)  T1 shortening (binding; concentration not given, 1 h, 40 °C, no BSA, together with: MPO, glucose oxidase, glucose): 80%
CCCCCCCCCCCCCC(=O)Nc1ccccc1SSc1ccccc1NC(=O)CCCCCCCCCCCCC  Gibbs free energy change (binding, fluorescence quenching; 313 K): -29.5 kJ/mol
O=C(O[C@@H]1Cc2c(O)cc(O)cc2O[C@@H]1c1cc(O)c(O)c(O)c1)c1cc(O)c(O)c(O)c1  emission maximum (binding, fluorescence quenching, item: BSA tryptophan fluorescence; 25 µM, pH 7.4): 365 nm

Some of these lines once more:
CC(=O)[O-].O.O.O.O.[Co+2].[O-]c1ccc(Br)cc1C=NCCN1CCOCC1  Gibbs free energy change (UV absorption titration): -24.8 kJ/mol
